{"data": "Measured values gathered from unrelated publications", "note": "Every numbered part comes from another study and shows a few of its results, in no order. Changes are numbered by the printed parent chain."}
{"data": "Block 1", "target": "ABI1, truncated, D143A, DHFR fusion (Arabidopsis thaliana)", "method": "DHFR PCA, deep sequencing", "medium": "yeast", "notes": "methotrexate growth selection, single substitutions", "added": "(+)-ABA 2500 µM", "reference": "wild-type fitted maximum", "direction": "higher = stronger binding", "parent": "PYL1, truncated, DHFR fusion (Arabidopsis thaliana); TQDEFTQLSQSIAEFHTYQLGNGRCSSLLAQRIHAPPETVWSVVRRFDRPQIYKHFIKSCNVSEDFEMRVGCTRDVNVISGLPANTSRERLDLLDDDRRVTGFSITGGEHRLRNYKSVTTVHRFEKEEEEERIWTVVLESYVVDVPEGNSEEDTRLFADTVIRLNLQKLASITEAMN; partner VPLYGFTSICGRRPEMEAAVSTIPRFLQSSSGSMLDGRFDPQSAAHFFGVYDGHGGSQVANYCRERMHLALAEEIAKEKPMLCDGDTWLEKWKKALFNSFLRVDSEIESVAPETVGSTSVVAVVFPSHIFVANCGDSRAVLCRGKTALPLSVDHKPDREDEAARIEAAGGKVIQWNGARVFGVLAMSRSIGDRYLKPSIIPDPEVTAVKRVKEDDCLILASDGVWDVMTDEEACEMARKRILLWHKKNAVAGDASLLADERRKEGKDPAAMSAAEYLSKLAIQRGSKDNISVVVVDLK"}
{"Variant": "S9Q", "relative binding score [%]": 107}
{"Variant": "R45N", "relative binding score [%]": 81.9}
{"Variant": "A84T", "relative binding score [%]": 56.1}
{"Variant": "H34V", "relative binding score [%]": 96.6}
{"Variant": "S59G", "relative binding score [%]": 96.2}
{"Variant": "K126Q", "relative binding score [%]": 101}
{"Variant": "V137I", "relative binding score [%]": 105}
{"Variant": "S117I", "relative binding score [%]": -2.68}
{"Variant": "D96E", "relative binding score [%]": 100}
{"data": "Block 2", "target": "CCNA1, cyclin fold, Cln2 fusion (human)", "method": "yeast growth competition, sequencing", "medium": "yeast", "notes": "strong parent motif", "reference": "not given", "direction": "higher = stronger binding", "parent": "CCP110 docking peptide (human); EKVKRRLDLDIDG; partner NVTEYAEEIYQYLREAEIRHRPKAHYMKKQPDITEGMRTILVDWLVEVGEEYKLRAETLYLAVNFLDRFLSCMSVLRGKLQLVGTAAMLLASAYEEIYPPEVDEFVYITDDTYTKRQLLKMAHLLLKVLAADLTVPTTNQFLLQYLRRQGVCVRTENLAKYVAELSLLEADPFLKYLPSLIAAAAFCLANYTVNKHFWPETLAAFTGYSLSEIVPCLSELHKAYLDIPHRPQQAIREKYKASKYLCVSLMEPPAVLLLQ"}
{"Variant": "EKVKRRLDFDIDG [L9F]", "normalised enrichment score": 1.83}
{"Variant": "EKVKRRLDLDIDA [G13A]", "normalised enrichment score": 0.373}
{"Variant": "EKVARRLDLDIDG [K4A]", "normalised enrichment score": 0.00167}
{"Variant": "EKVKRRLALDIDG [D8A]", "normalised enrichment score": 0.315}
{"Variant": "EKVKRRLDADIDG [L9A]", "normalised enrichment score": 0.142}
{"Variant": "EKVKRRLDLDIAG [D12A]", "normalised enrichment score": 0.48}
{"Variant": "EKVKARLDLDIDG [R5A]", "normalised enrichment score": 0.369}
{"data": "Block 3", "target": "Interferon regulatory factor 5, full length, phosphomimetic (IRF5, Homo sapiens, UniProt Q13568-2, residues 1-514, S451D/S453D/S456D/S462D)", "method": "protein-binding microarray", "form": "double-stranded DNA, one strand shown", "medium": "in vitro", "tested at": "940 nM top", "notes": "60-bp whole probe", "added": "salmon DNA 0.4 mg/ml", "reference": "random background probes", "direction": "higher = stronger binding", "all sequences stand within": "GCCTAGCAC … GTCTTGATTCGCTTGACGCTGCTG"}
{"Sequence": "GACGAACTGGGGGCTGGAGACGTGCTA", "fitted relative affinity [z-score]": 0.766}
{"Sequence": "CGGGGGTGGGGAGAGCCCCTGTGCTAG", "fitted relative affinity [z-score]": 1.73}
{"Sequence": "TTAGAACTGGGGTTTCGATAAGTGCTA", "fitted relative affinity [z-score]": 4.5}
{"Sequence": "GACGGACTGGGACTGGAGACGTGCTAG", "fitted relative affinity [z-score]": -0.643}
{"Sequence": "GAGGGTATCCTTCTCCTGACGTGCTAG", "fitted relative affinity [z-score]": 0.168}
{"Sequence": "ACCCGAGACACCGCCCCTTTGTGCTAG", "fitted relative affinity [z-score]": 0.418}
{"data": "Single results of other studies"}
{"Substance": "PhoQ, residues 284 288 289 292 302 303 HSSMNL", "target": "PhoP, residues 12 14 15 18 19 LHSVW (Escherichia coli, UniProt P23836)", "test": "Sort-seq, refers to: YFP reporter", "test system": "E. coli", "conditions": "PhoQ-PhoP variant library, added: 10 µM Mg2+", "how to read": "reference: high Mg2+ state, higher = stronger signaling", "quantity": "fold induction", "result": 3.97}
{"note": "A few entries again (block 1):"}
{"Variant": "K126Q", "relative binding score [%]": 101}
{"Variant": "D96E", "relative binding score [%]": 100}
